# Published values of several laboratories.
# Numbered parts are unrelated; each lists some results of a single study. Substitutions count along the parent as printed.

# Block 1
# Target: Interferon regulatory factor 5, full length, phosphomimetic (IRF5, Homo sapiens, UniProt Q13568-2, residues 1-514, K96S/S451D/S453D/S456D/S462D)
# Technique: protein-binding microarray
# Form: double-stranded DNA, one strand shown
# Matrix: in vitro
# Tested at: 250 nM
# Notes: 60-bp whole probe
# Together with: salmon DNA 0.4 mg/ml
# Relative to: random background probes
# Direction: higher = stronger binding
# All sequences stand within: GCCTAGCAC … GTCTTGATTCGCTTGACGCTGCTG
Oligonucleotide,log fluorescence
GACGGTATCCTAATGCTGACGTGCTAG,-0.252 z-score
GACGAACTGGGGACTGGAGATGTGCTA,-0.417 z-score
GACGGACTGGACTCTCGGGACGTGCTA,-0.543 z-score
GAGGGTATCGGTATCGGGACGTGCTAG,5.13 z-score
AACGGTTTCGGTCTCGGGACGTGCTAG,10.2 z-score
GTCGGACTGCTACTGCTGACGTGCTAG,-0.501 z-score
TTAGAACTGGGGTTTCAATTAGTGCTA,0.546 z-score
TTAGATATCAGATTCGATTAGTGCTAG,1.33 z-score
GTCATTATCCTTGTCCCTCCGTGCTAG,0.264 z-score
GACGGACTGCTTACCCTGACGTGCTAG,-0.326 z-score
TTAGGTATCGGTTTCGGCTAGTGCTAG,9.81 z-score
CAAGTGATGTAGCTGGGAGCGTGCTAG,-0.225 z-score
GACGATTTCGGGTTGCGAGACGTGCTA,3.5 z-score
GACGGACTGCATTTCCTGACGTGCTAG,-0.392 z-score
GACGGACTGCATATCCTGACGTGCTAG,-0.489 z-score
GACGGACTTGGACTGGGGACGTGCTAG,-0.293 z-score
CTAGGACTGGACACTGGGTTAGTGCTA,-0.702 z-score
TCAGGTTTCGGGACTGGGTTAGTGCTA,5.51 z-score
GACGATCTCAGGCTGGAGACGTGCTAG,-0.55 z-score
ATTGGTCTTCACTTGGCAAAGTGCTAG,0.176 z-score
AGAGAGAGTGAGGAACAACAGTGCTAG,-0.298 z-score
TCAACCCTCCCTCTGTAAGTGTGCTAG,-0.193 z-score
GACGGTCTGGGGTATCGGGACGTGCTA,0.151 z-score
TTTTCACTTTCTTTAACTCAGTGCTAG,5.95 z-score
TTAGATTTCAGTATCCATTAGTGCTAG,2.47 z-score

# Block 2
# Target: FOSL2, bZIP domain (human)
# Technique: DHFR protein complementation
# Matrix: yeast
# Notes: single substitutions, most at no-binding floor
# Relative to: wild-type JUN-FOS pair
# Direction: higher = stronger binding
# Starting sequence: JUN, bZIP domain (human); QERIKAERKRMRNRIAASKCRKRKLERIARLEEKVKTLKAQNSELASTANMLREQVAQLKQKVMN; partner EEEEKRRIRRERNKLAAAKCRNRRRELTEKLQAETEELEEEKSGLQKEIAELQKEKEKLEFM
Change,binding fitness
I28Q,-0.0109 natural log
L45M,-0.0888 natural log
E54N,-0.0483 natural log
S43D,0.00318 natural log
T48Y,0.102 natural log
S43E,0.194 natural log
E54A,-0.0434 natural log
R53Y,-0.611 natural log
V56L,-0.198 natural log
Q55R,-0.0429 natural log
T48I,0.0258 natural log
R30W,0.115 natural log
L31W,-0.122 natural log
E33H,-0.0854 natural log
Q41R,-0.121 natural log
S47H,0.0706 natural log
E44P,-1.32 natural log
L45V,-1.4 natural log
L31P,-1.12 natural log

# Block 3
# Target: RING finger protein unkempt homolog, zinc fingers 1-6, GST-SBP tag (UNK, Homo sapiens, UniProt Q9C0B0, residues 30-357)
# Chain of UniProt Q9C0B0 (30-357, looked up): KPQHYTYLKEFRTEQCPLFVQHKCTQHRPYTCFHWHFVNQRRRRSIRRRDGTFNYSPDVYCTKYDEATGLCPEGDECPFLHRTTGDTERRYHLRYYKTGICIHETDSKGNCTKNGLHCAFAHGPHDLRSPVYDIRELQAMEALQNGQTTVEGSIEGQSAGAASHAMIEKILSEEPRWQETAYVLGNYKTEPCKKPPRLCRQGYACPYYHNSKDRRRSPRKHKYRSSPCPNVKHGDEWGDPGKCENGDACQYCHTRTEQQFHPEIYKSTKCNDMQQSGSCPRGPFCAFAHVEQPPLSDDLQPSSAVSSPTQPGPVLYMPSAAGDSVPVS
# Technique: RNA Bind-n-Seq
# Form: RNA
# Matrix: in vitro
# Tested at: not given
# Notes: RNA with constant flanks, human-mouse chimeric sites, ends assumed
# Relative to: input RNA pool
# Direction: higher = stronger binding
# All sequences stand within: GGGAGUUCUACAGUCCGACGAUC … CAACAGAGGAUUGAGCAUCA
Oligonucleotide,bound/input enrichment [ratio]
GGUGGGGUGGUCAUUGCGCCAAUUGAGGCUGAUUUUCUUAUGAAUCAUUCAAAACUCUCGUGUAGGGUUGACAAUGUGGGGGGGUGGGGGAUCCAGCUUAUUCUUUUAUUUUCAAGUCCA,0.86
UCUUUAAAAAAAAAAUUACCUUUUCUGACAGUGCUUUCCCUCCCAUAGAUCCACGUUCAAGCUCAAAGAGCAAAGGCUUUGCACGGAGCUCAAACAUAAAAGAAAGAUUUUUGAGACAGA,0.844
UUGUGCAAUGAUGCUUGAGAUGGUUUUUGCAAAAGCAGAAAUCGCUGCAAGGUAAUCACAAUAGAUAAAAGUGGUAUUUUAAACCUUUGAAAUAAAUGGAUGUAACUGUACCUUGGUACA,0.671
ACCUCCCCCUCCCGCCUCACCCCACCCCCGCUUUUUGGAAAGUUUUUGGCUUUUUUUUUCCUUCCCCAUACAAAGUGAUUACAGUUUCCCCCGCAAGGGUCUAUCGAUUCACCCUUCGGA,1.38
CAGUCCCCGUGUCCCAGUGCAGGACGAUGUGAACAAAUCGAAGACAUGGACCCUCUACUGUAGUUGAUGAUUCUCGAAAUGUGCUAUUAUUGUUUGUCUUUUUUUUUUUUUUUUUAAAGA,0.984
UCUGGUCACACUCGUGUGUAUGGUGUUUGCUUUGUGGACACUUCACUGGGCAAGUUUUUCAUAGGUCAGUUUUCGGAUGACCGCCACUGUUCCAGAUUUAGGACUCUAGUGGCUCACUAU,0.155
GAGUCGAGCAAACUUGAAACAAUUCGUUUUACAAAAACCUCAGUGUUCACUUGCUUGGCGAUAGCAUUGGGGUUUUAUAUAGAUUCUAAGGAGAACUGACGAUGAUGCUGCCGCUGCUGC,0.35
CUGGCCUUCUGAGCAUCAGGGGCCUCCUUUCGUAUAGUCACUGCUUCUGCAUCAGAUACUUUCAGCUGCAACUCCCUGCAGGGUGGGGCACCCAUUUCAGGCAGAAGGUUUUGGUACCCU,0.254
UCUGGUCACACUCGUGUAUAUGGUGUGUGCUUUGUGGACACUUCACUGGGCAAGUUUUUCAUCGGCCAGUUUUCGGAUGACCGCCACUGUUCCAGAUUUAGGACGCUAGUGGCACACUAU,0.205
UCCCAAAUCCAGCAGCUAGAAGGAGCCUUGAGACAAACACUCCACACACAGGGAAGGCGAUAACAUUGUACAUUGGUUUACAUUUUUUCCCCCUGUGUUUUCUAGGGGAGGUCAUAGUGC,0.447
UUGAAAACAAACUGAUUCAAGUUUGAAUAUCACAAUGUUAGCUUUCUAAUUCCAUAAAAGUACUUGGUUUUUACAGUUUAUAAUCUGACAUCACCCCAGCGCCAUUUGUAAAGAGCAACU,0.427

# Block 4
# Target: Sal-like protein 4, full length isoform A (SALL4, Homo sapiens, UniProt Q9UJQ4, residues 1-1053)
# Chain of UniProt Q9UJQ4 (whole entry, looked up): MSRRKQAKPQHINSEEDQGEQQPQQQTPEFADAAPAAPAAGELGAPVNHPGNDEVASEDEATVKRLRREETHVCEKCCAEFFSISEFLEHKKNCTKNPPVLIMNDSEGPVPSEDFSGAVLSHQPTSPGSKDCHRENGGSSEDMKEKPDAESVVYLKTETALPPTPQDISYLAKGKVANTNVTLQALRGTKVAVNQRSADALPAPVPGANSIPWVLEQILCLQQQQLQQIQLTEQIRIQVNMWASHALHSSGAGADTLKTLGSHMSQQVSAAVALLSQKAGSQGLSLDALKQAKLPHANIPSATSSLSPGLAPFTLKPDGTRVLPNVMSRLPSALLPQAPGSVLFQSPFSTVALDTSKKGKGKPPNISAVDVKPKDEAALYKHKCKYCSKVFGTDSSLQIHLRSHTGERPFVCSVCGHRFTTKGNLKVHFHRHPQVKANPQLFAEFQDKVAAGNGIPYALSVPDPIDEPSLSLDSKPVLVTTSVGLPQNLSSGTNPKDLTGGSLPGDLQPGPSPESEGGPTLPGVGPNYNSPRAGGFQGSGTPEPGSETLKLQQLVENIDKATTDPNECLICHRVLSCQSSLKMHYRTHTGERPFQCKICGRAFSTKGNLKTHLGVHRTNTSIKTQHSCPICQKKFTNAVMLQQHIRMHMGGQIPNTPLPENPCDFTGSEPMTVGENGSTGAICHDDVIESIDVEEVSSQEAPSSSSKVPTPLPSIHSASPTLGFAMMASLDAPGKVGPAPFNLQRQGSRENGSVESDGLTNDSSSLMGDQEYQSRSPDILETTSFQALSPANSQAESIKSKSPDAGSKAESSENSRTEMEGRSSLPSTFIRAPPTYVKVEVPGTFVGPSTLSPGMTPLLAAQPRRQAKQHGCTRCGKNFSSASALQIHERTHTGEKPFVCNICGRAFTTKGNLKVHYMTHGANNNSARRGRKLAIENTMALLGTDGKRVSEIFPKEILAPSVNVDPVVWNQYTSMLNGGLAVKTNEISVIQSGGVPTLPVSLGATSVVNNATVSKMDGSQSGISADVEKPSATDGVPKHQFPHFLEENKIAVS
# Technique: universal PBM
# Form: double-stranded DNA, one strand shown
# Matrix: in vitro
# Tested at: 600 nM
# Notes: 8-mer, flanks averaged, mean of replicates
# Direction: higher = stronger binding
Oligonucleotide,E-score
GAGCCGCC,-0.331
GAGAAGCA,-0.0342
GTCCCATA,0.0711
GAGGAACA,-0.0131
CAAATGAA,0.335
ACCGAGAT,0.0246
ACCCCGAG,-0.22
CTTAAGTC,0.011
CTGTCGAA,-0.0327
CGTCCGTA,-0.0928
GCTAAAAC,-0.0436
CAGTTACC,-0.0661
AGAAGAAA,0.0968
GGCCGAAC,-0.399
CGATTGAG,-0.0837
ATGCCGGG,-0.277
GCGGCTCA,-0.242
AGTCTAGA,0.105
CGCTACAC,-0.127
ACTTCCAG,-0.00462
GATCCATA,0.244
CGACGATA,0.0304
CTCCACAG,-0.211
GCCCAGGA,-0.288
CTAAGGAA,0.00377

# Block 5
# Target: RNA binding protein fox-1 homolog 2, RRM domain, GST-SBP tag (RBFOX2, Homo sapiens, UniProt O43251-10, residues 100-194)
# Technique: RNA Bind-n-Seq
# Form: RNA
# Matrix: in vitro
# Tested at: 365 nM
# Notes: natural RNA segment, single round, ends assumed
# Relative to: no-protein control
# Direction: higher = stronger binding
# All sequences stand within: GGGAGUUCUACAGUCCGACGAUC … UGGAAUUCUCGGGUGCCAA
# Residues (chain): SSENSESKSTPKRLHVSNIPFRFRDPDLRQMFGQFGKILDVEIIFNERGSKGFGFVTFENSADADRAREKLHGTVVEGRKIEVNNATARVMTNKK
Oligonucleotide,RBNS enrichment (R)
AAAACUGGCACAUUUGUUCUGCAGACUAUUGCAGGAAUGUUUUUUCCUAGCAUUUCUAUAUUAUCUGUCCAUUCUGAGGAACCAGUGAAUGUCCUAUAAAUGCACCUCCU,0.944
GAGAGUCAGUCUGAAGAGAACACAGCCCUGGAGCCCCCCGGCCUCCGGGAAGAAGGAGAAGGAGAUGCCCAGUGUGGCCAAGGCUCUCGACACCAGGAGCUGUUGGGAGA,0.71
CAGAGGAUGUGGUCAUACAGGAUGGCUCCCAUGUGGGCCUAGAACCCAGGAUGCUUCACUCUUGACUCCAUGCUCUUCCUUUUAUACCAUGUGGCUGUGAAUACAUACUA,0.757
AUGUGAAGUGAAGUCACGGAACAAGAUGCUGCUGUUGGGACCUUGAGACCAAAAUUUCAGAGCCCUUGAGGUGCAGAGAGCAGAGCCGUCCAAUGAUUUCAACCCUGCAG,0.347
CUUUUGAAGAGGUUUCCAUUUUUAUUUAAAUUGCUAAUGGAUCAGAGAACAAUUGUUUAUUUUUUCUCUUUGGUUUUAGAUAUUAAUAAUAACAUUACUGGAAUUUUUUU,0.887
GAGACACGCCUUUUUACUAGUUCAUUUGCAUUUAAAUCAGUGAUCCUGUUCUGUGGCAUUCAUGAAAAACAAGUUGAAGAAUUUGUUUAUCUGGAAUUGUUUCUAAAUAU,0.448
GUAAGAAAGAAAGCCAGGACAAUAACUGGGCCAGCAGCUCUGAAGCACACCUUCCCCGUCUGUCCCAGUAGGGGCUGGCGCUGGGGUUGGAGGCCGCUGGCCUGUGCUCU,0.251
AGCUGGACGUAUAUAAAGGGUCCUCGUGCUUGUUCUUUGCCAGUUCCCACUAGAAAAGGCGCUCCUGUGGUGGCCACCUCUGUCUUCCUACUGAGAACUUCCUGUUCCAG,0.291
UCAGGCCCCGGGCUCCCUGGCCACAAGCUUUUUCUAUCCUGUUUUCAUGACAGAGAAGGGGAAGCCCUGUUCUGACAACAGACAUUUCAGACAACCUUGCUGGCUUUCCA,0.478
UAACAUUAUGAGAGAAAAGCAUAAAACAAAAAUAGGUAGUUCUUGGCUUUUAACAUUAAUGCAAAUCAUGCAGAAUUUGAGUUAUAAAUUUAAAUAUAAAUUGACCAUUG,0.674
GUGCGACUCUGUGGUCCUGAGUGCCAGAAGCUGUCUCCAUGGGUUGGUCACAGUGUGCAUCGCACCGUGCUGUACAUGUGCAGACGCAGCCUGCAGCCAGGUUUUUAUUU,0.274
CUGUAGUGAAUACUGUGUCACCAAUUUUGAAAUCAAUUUAAUGUUUAAUGCAAAUCCAUUACAUGGUGCUAUUAUAGGCUGACAAAAUGAUUUACACAAAUGUGACAACU,0.256

# Block 6
# Target: Histone acetyltransferase KAT6A, winged helix 2, GST fusion (KAT6A, Homo sapiens, UniProt Q92794, residues 85-181)
# Technique: protein binding microarray
# Form: double-stranded DNA, one strand shown
# Matrix: in vitro
# Tested at: not given
# Notes: 8-mer, flanks averaged, mean of 2 arrays, mostly near background
# Relative to: not given
# Direction: higher = stronger binding
# Construct (chain): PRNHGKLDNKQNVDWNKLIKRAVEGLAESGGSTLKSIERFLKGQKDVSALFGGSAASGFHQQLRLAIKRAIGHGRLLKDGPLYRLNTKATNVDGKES
Oligonucleotide,E-score
GCTGGAAA,0.181
CCTTGATA,0.0371
ATTCCAGG,-0.0448
ATAGTCCC,-0.0303
GTGGCACA,-0.141
CTAGCGGA,0.0156
AATGTGTA,-0.0815
ATTTCCGG,-0.0336
GAACTGAC,0.0139
ATCTGCAC,-0.0538
GACCCAAC,0.00193
CGATCTTA,-0.141
AGCTGTGC,0.157
GATTAGAA,-0.00201
ACTCGGCG,0.181
AGGGGTTC,-0.14
AAACGCCA,0.0258
ATTGAAAC,-0.0988
TAACCTAA,-0.0994
CTTTGCGC,0.158

# Some of these lines once more (block 6):
Oligonucleotide,E-score
GACCCAAC,0.00193
CGATCTTA,-0.141
AGCTGTGC,0.157
GATTAGAA,-0.00201
ACTCGGCG,0.181
AGGGGTTC,-0.14
